Measurements pooled from the literature.
Numbered parts are unrelated; each lists some results of a single study.

Sample 1 — technique: RNA Bind-n-Seq; form: RNA; sample: in vitro; tested at: 365 nM; reference: no-protein control; direction: higher = stronger binding; quantity: RBNS enrichment (R)
Target: RNA binding protein fox-1 homolog 2, RRM domain, GST-SBP tag (RBFOX2, Homo sapiens, UniProt O43251-10, residues 100-194)
Setting: natural RNA segment, single round, ends assumed
Shared flanks, not repeated: GGGAGUUCUACAGUCCGACGAUC … UGGAAUUCUCGGGUGCCAA
Residues (chain): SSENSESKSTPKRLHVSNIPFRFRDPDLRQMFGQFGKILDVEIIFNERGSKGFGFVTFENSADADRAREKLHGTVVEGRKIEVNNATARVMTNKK
CCUGAGUGCAGAGUGUGUCCAUCUCGGCGUAUGGUGAAGGUGUCACUGGGUUCUGCAGCACUGGAGUUUCCAUGACCGCUCCCACAUCACCCCACCCUCGACUCUGGCAC: 0.395
UUAAGUACAAGUUGAACAAAAAUUAUGAAAAGGUAUAUUUGCUUCUCGGGAAAGCAAAGAAGCUGCUUUAAAAAAUAAAAAGGGGACUAAAAAUUUGUUUUGUAUAAAGA: 1.01
UUCCCGGAAAAAAAAAAAUGCAAUAAUGGGAAUGAUUUGGGGCUUUUAUUUUUUAUUUUAAAAGAAUAUUGACUUAUUUAGCACAAGCUAUUUUUCCCUCUCUGGUGAUA: 1.21
UAAAUUGGGUGUUAGCUUGAGGUGUUUUGGGGGAGUUUGUUGUAAUGGUUUUGCUGUAAACUGUGUUUGGAACUCUGCUGAAGUGUUGCUGAAAAGCAUGGUGCUGGUAA: 1.85
AAUAAAACAUCAAAUUAGGUUUGGAGGGAACUUUGAUCUUCCUAAGAAUUAAAGUUGCCAAAUUAUUCUGAUUGGUCUUUAAUCUCCUUAAGUUUUUGAUUUAUCUUACU: 0.433
ACUUUUUCAGGAUCUGUGUGAAGAAUGGUAAUGACGUAGUUGAAAGGAAAAUGUACUGUUGUGUGUUUCAUUUGUGUGAUUUCGUACCAAAAAAAUGUGUUUGAACUAUA: 1.9
UUUCUUUAUUAAAAUUACUUUUAUCUUAUAAAAUCAACUAAUCAAAAAUGAUAUAGACGACAGCACUGGCUCUGUGAAGGUGGCAUCUUUCUGGGCAGGCAGGCCAUGGG: 0.574
GCAGUCCGUGCUCCUCCAGCUGCCCCAGUGAGGGCCCACCCUGCCUGCACCUCCGCGGGCUGACUGGGCCACAGCCCCGAUGAUUCUUAACACAGCCUUCCUUCUGCUCC: 0.312
UUCCUAUGAGCUCUCUGCUCAGAGCAGCUGUCUGUGGUCCCGUGGGUCCUGGAUUCUGUGAUGGUAUCAGCACCUGGACGGCCCCAGUCUAGAUUCAGCAAUGAAAAUCC: 0.215
AGAGUGUCCACCGGGCACCCGCCUCUGCCGGCCCCCCGCCGGGCGCCCCAACCCCAAUUUCUGGAGCUGCAGCCGUCCCGCGCCCCACCCAAGGUGGGCGCCUUCCCCUC: 0.277
GGAUCGGGCCCCCGUAGUCCUGGCAGCCCUGUUGUCUGGAGGGUUCUUGUUGUCCCUCCCAUUAGCCAGGGCGGAGACUGUCUGAGCUGUGCAGGAGGAGGGUUGCUAGU: 0.613
AGAGACGGGGUUUCACCACGUUGGCCAGGCUGGUCUUAAAUGACCCUCUUAUUUUUAACUUGGAUACCUGCUAUUCUGCCAAAAGACAAUUUCUAGAGUAGUUUUGAAUG: 0.271

Sample 2 — technique: protein-binding microarray; form: double-stranded DNA, one strand shown; sample: in vitro; tested at: 940 nM top; setting: 60-bp whole probe; together with: salmon DNA 0.4 mg/ml; reference: random background probes; direction: higher = stronger binding; quantity: fitted relative affinity; shared flanks, not repeated: GCCTAGCAC … GTCTTGATTCGCTTGACGCTGCTG
Target: Interferon regulatory factor 5, full length, phosphomimetic (IRF5, Homo sapiens, UniProt Q13568-2, residues 1-514, S451D/S453D/S456D/S462D)
TAAGGACTGCTTATCCTTTAGTGCTAG: -0.0484 z-score
TTAGATTTCAGTCACGATTAGTGCTAG: 0.926 z-score
GTAGGTCTCCTTTTCCTTTAGTGCTAG: 0.719 z-score
GACGAACTGGGGTATCGAGAGGTGCTA: 0.42 z-score
GACGGTTCCCTTCTCCTGACGTGCTAG: 0.466 z-score
TTAGGTTTCGGTTCCAGTTAGTGCTAG: 15 z-score
TCATATATTATATATTTAACTGTGCTA: 0.56 z-score
GCCGATTTCAGTCTCGAGACGTGCTAG: 2.17 z-score
ATAAAAGAACTCCTGGGGGAGTGCTAG: 0.501 z-score
TTAGGACTGGTGTTTCGGTTAGTGCTA: 2.14 z-score
GACGGTTTCGGCACTGGGGACGTGCTA: 7.2 z-score
TCATTTATCAATCATTTTACTGTGCTA: 1.09 z-score
TTAGGACTGCTACCGCTTTAGTGCTAG: -0.303 z-score
TACGATCTCAGTCTCGAGACGTGCTAG: 1.43 z-score
GAGGGTATCGGGACTGGGGACGTGCTA: 2.14 z-score
TGATAAATCTTTGTTGGAGGGGTGCTA: 0.543 z-score
TTAGGACTGGGAATCGGTTAGTGCTAG: -0.342 z-score
GACGCTTTCAGTTTCGAGACGTGCTAG: 5.41 z-score

Sample 3 — technique: universal PBM; form: double-stranded DNA, one strand shown; sample: in vitro; tested at: 600 nM; direction: higher = stronger binding; quantity: E-score
Target: Sal-like protein 4, full length isoform A (SALL4, Homo sapiens, UniProt Q9UJQ4, residues 1-1053)
Chain of UniProt Q9UJQ4 (whole entry, looked up): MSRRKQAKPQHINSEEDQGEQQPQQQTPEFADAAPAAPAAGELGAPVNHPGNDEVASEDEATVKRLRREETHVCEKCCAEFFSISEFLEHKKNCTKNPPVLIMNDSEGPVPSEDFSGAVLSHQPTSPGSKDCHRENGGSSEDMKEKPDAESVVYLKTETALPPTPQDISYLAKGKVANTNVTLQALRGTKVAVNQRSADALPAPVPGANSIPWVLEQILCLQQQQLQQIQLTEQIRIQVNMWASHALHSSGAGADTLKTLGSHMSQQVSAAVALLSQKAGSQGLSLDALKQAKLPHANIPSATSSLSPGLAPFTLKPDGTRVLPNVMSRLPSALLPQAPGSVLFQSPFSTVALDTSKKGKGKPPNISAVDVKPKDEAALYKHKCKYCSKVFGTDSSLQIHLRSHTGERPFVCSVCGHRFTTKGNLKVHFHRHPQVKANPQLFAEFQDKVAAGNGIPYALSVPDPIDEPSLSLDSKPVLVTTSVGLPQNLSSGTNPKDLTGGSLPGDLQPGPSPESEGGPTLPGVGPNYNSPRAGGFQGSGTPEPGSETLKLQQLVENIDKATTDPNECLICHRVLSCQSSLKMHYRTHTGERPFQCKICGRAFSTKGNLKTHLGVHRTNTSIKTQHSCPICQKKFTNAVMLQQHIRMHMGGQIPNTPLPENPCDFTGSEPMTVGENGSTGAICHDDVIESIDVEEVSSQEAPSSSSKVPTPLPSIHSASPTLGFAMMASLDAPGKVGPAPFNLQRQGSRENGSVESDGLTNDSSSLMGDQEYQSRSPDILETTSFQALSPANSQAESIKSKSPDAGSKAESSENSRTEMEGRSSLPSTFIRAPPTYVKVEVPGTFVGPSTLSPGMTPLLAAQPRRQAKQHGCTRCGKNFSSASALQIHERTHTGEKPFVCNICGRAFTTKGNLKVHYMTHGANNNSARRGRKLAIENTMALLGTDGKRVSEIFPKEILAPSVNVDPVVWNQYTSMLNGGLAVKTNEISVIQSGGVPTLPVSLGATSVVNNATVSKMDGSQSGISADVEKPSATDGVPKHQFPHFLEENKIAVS
Setting: 8-mer, flanks averaged, mean of replicates
GCGACCGA: -0.23
CGCACCCG: -0.336
AGCCAGAG: -0.214
GGATGCAA: 0.107
TGCCACCA: -0.196
ACACTGTG: -0.097
GCCTTCAC: -0.074
CAGTAATC: -0.053
CGGTTAGA: -0.193
GAGGGGGC: -0.405
AAAGGCCA: -0.119
AAAGATAG: 0.201
AATAAAGT: 0.32
AAAAAAGC: 0.198
AAAAGCCA: 0.0908

Further values, each from its own experiment
PhoQ, residues 284 288 289 292 302 303 TVTVVA — fold induction (PhoP, residues 12 14 15 18 19 IQFRS (Escherichia coli, UniProt P23836); Sort-seq, item: YFP reporter; E. coli; PhoQ-PhoP variant library, together with: 10 µM Mg2+; reference: high Mg2+ state, higher = stronger signaling): 18.2
